Experimental data of several laboratories.
Protocols differ between the studies behind these lines. ± gives the spread as reported.
CFTR del508-508: Cystic fibrosis transmembrane conductance regulator (CFTR, Homo sapiens, UniProt P13569, del508-508)
Chain of UniProt P13569 (whole entry, unmodified, looked up): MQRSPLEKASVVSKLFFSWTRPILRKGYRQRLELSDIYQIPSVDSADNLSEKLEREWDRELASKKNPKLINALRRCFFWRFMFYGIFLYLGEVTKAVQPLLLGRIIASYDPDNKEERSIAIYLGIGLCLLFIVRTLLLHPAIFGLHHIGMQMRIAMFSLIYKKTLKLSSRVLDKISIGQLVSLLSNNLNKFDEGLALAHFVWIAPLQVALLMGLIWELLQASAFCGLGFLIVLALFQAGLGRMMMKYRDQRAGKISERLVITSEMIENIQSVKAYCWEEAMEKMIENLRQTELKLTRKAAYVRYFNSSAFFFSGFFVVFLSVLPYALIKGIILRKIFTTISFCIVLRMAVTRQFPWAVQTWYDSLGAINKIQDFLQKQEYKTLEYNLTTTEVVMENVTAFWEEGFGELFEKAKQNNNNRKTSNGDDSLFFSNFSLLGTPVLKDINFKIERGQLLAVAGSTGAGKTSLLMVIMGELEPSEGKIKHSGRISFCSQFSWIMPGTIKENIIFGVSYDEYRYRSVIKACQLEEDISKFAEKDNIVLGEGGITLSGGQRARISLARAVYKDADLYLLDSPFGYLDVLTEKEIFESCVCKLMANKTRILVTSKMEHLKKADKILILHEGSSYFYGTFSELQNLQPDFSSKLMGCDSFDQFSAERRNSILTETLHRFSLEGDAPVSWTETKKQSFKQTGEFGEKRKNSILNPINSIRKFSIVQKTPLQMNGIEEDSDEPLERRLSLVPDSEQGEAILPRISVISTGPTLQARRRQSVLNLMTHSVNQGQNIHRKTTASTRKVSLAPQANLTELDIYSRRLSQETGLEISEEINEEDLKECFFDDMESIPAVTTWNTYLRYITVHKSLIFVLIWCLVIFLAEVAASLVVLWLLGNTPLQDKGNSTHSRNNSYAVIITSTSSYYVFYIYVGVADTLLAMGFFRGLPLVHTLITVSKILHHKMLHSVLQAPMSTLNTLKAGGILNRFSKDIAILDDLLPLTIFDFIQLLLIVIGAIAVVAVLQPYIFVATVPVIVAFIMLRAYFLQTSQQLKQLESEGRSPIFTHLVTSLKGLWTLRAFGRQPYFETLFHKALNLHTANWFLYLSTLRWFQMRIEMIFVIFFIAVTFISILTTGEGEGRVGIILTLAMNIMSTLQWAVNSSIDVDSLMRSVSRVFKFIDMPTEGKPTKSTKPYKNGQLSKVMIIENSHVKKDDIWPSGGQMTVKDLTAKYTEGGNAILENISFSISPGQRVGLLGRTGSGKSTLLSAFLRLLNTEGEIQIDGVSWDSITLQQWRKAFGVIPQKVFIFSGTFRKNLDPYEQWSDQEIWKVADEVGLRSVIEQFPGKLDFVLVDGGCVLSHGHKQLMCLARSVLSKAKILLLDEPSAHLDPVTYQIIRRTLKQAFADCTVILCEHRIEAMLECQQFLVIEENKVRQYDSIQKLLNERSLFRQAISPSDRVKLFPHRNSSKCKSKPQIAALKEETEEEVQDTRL

`Cc1cc(C)c2cc(C#N)c(NCCCNC(=O)c3cccnc3)nc2c1` has a Vmax of 140 µM/s (CFTR del508-508; CFTR correction, corrector, iodide influx rate; FRT expressing YFP-H148Q/I152L; up to 25 µM, 16-20 h, 37 °C, added: forskolin 20 µM, genistein 50 µM).
With `COc1ccc(Cl)cc1Nc1nc2c(s1)CCCc1nc(NC(=O)C3CC3)sc1-2` the Vmax was 473 µM/s (CFTR del508-508; iodide influx, corrector, YFP halide quenching; FRT cells expressing YFP-H148Q/I152L; 16 to 20 h, 37 °C, genistein 50 µM, added: forskolin 20 µM).
For `Cc1cc(C)c2cc(C#N)c(NCCCNC(=O)c3ccccn3)nc2c1`, EC50 read “inactive” (CFTR del508-508; ΔF508-CFTR correction, corrector; FRT; up to 25 µM, 37 °C, added: forskolin 20 µM + genistein 50 µM).
`C=CCn1nc(-c2sc(NC(=O)C(C)(C)C)nc2C)cc1C(=O)Nc1ccc(OC)cc1` has a Vmax of 0.5 µM/s (CFTR del508-508; iodide influx, corrector, YFP quenching; FRT expressing ΔF508-CFTR and YFP-H148Q/I152L; added: forskolin 20 µM + genistein 50 µM).
The Vmax of `COc1ccc(C(=O)NCCNc2nc3cc(C)cc(C)c3cc2C#N)cc1OC` is reported as 380 µM/s (CFTR del508-508; CFTR correction, corrector, iodide influx rate; FRT expressing YFP-H148Q/I152L; up to 25 µM, 16-20 h, 37 °C, added: forskolin 20 µM, genistein 50 µM).
With `COc1ccc(Cl)cc1Cn1nc(-c2sc(NC(=O)C(C)(C)C)nc2C)cc1C(=O)N1CCOCC1` the Vmax was 7.26 µM/s (CFTR del508-508; iodide influx, corrector, YFP quenching; FRT expressing ΔF508-CFTR and YFP-H148Q/I152L; added: forskolin 20 µM + genistein 50 µM).
With `COc1ccc(C(=O)NCCNc2nc3cc(C)cc(C)c3cc2C#N)c(OC)c1` the Vmax was 108 µM/s (CFTR del508-508; CFTR correction, corrector, iodide influx rate; FRT expressing YFP-H148Q/I152L; up to 25 µM, 16-20 h, 37 °C, added: forskolin 20 µM, genistein 50 µM).
`CN(C)c1ccc(Cl)cc1Nc1nc2c(s1)CCCCc1nc(NC(=O)C(C)(C)C)sc1-2` gave a Vmax of 198 µM/s (CFTR del508-508; iodide influx, corrector, YFP halide quenching; FRT cells expressing YFP-H148Q/I152L; 16 to 20 h, 37 °C, genistein 50 µM, added: forskolin 20 µM).
`Cc1nc(NC(=O)C(C)(C)C)sc1-c1cc(C(=O)NCc2ccccc2)n(Cc2ccccc2)n1` gave a Vmax of 1 µM/s (CFTR del508-508; iodide influx, corrector, YFP quenching; FRT expressing ΔF508-CFTR and YFP-H148Q/I152L; added: forskolin 20 µM + genistein 50 µM).
`COC(=O)CCC(=O)Nc1nc2c(s1)-c1nc(Nc3cc(Cl)ccc3OC)sc1CCC2` has a Vmax of 678 µM/s (CFTR del508-508; iodide influx, corrector, YFP halide quenching; FRT cells expressing YFP-H148Q/I152L; 16 to 20 h, 37 °C, genistein 50 µM, added: forskolin 20 µM).
Under EC50, `COc1ccc(C(=O)N2CCN(c3nc4cc(C)cc(C)c4cc3C#N)CC2)cc1` is recorded as “inactive” (CFTR del508-508; ΔF508-CFTR correction, corrector; FRT; up to 25 µM, 37 °C, added: forskolin 20 µM + genistein 50 µM).
The activation of `O=c1cc(-c2ccc(O)cc2)oc2cc(O)cc(O)c12` is reported as 319 ± 60% (CFTR (Homo sapiens, UniProt P13569); ion current, whole-cell patch clamp; Calu-3; 50 µM, added: forskolin; reference: forskolin-stimulated current).
`CN(C)c1ccc(Cl)cc1Nc1nc2c(s1)CCCc1nc(NC(=O)C(C)(C)C)sc1-2` gave a Vmax of 366 µM/s (CFTR del508-508; iodide influx, corrector, YFP halide quenching; FRT cells expressing YFP-H148Q/I152L; 16 to 20 h, 37 °C, genistein 50 µM, added: forskolin 20 µM).
For `CCOC(=O)c1cc(-c2sc(NC(=O)C(C)(C)C)nc2C)nn1Cc1ccccc1`, the Vmax was 2.6 µM/s (CFTR del508-508; iodide influx, corrector, YFP quenching; FRT expressing ΔF508-CFTR and YFP-H148Q/I152L; added: forskolin 20 µM + genistein 50 µM).
For `COc1ccc(Cl)cc1Nc1nc2c(s1)CCCCc1nc(N)sc1-2`, the Vmax was 592 µM/s (CFTR del508-508; iodide influx, corrector, YFP halide quenching; FRT cells expressing YFP-H148Q/I152L; 16 to 20 h, 37 °C, genistein 50 µM, added: forskolin 20 µM).
`CCCC(=O)O`: “short-circuit current increase” 2 to 3 fold (CFTR (Homo sapiens, UniProt P13569, N1303K); corrector; FRT cells expressing CFTR; 3 mM, 24 h, added: forskolin, potentiator 5 µM; reference: no corrector).

Repeated from above:
`Cc1nc(NC(=O)C(C)(C)C)sc1-c1cc(C(=O)NCc2ccccc2)n(Cc2ccccc2)n1` gave a Vmax of 1 µM/s (CFTR del508-508; iodide influx, corrector, YFP quenching; FRT expressing ΔF508-CFTR and YFP-H148Q/I152L; added: forskolin 20 µM + genistein 50 µM).
`COC(=O)CCC(=O)Nc1nc2c(s1)-c1nc(Nc3cc(Cl)ccc3OC)sc1CCC2` has a Vmax of 678 µM/s (CFTR del508-508; iodide influx, corrector, YFP halide quenching; FRT cells expressing YFP-H148Q/I152L; 16 to 20 h, 37 °C, genistein 50 µM, added: forskolin 20 µM).
